Assay results pooled from the literature.
Compare with care: the assays were run in different laboratories. Several values in a cell are separate wells, animals, samples, runs or records. ± gives the spread as reported.
Spike glycoprotein: Spike glycoprotein (Severe acute respiratory syndrome coronavirus 2, UniProt P0DTC2)
rep main protease: Replicase polyprotein 1ab, main protease (rep, Severe acute respiratory syndrome coronavirus 2, UniProt P0DTD1)
Sequence of UniProt Q7BQ98 (whole entry, looked up): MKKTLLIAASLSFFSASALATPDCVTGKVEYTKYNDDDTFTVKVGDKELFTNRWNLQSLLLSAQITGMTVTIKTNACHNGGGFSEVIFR
Sequence of UniProt P78348 (whole entry, unmodified, looked up): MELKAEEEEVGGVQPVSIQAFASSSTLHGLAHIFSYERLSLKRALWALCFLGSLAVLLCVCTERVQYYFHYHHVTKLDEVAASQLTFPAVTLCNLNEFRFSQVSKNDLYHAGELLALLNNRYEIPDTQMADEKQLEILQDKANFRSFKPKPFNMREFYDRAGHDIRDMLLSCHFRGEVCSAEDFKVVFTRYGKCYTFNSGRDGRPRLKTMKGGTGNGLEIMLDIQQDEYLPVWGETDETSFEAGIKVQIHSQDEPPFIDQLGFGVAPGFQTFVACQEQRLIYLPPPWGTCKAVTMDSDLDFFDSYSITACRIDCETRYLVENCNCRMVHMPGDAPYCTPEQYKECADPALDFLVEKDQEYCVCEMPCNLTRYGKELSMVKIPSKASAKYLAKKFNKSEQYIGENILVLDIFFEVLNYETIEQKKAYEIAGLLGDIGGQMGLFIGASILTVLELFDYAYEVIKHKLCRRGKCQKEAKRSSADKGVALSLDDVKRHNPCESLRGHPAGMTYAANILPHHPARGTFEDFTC
Sequence of UniProt P0A8T7 (whole entry, looked up): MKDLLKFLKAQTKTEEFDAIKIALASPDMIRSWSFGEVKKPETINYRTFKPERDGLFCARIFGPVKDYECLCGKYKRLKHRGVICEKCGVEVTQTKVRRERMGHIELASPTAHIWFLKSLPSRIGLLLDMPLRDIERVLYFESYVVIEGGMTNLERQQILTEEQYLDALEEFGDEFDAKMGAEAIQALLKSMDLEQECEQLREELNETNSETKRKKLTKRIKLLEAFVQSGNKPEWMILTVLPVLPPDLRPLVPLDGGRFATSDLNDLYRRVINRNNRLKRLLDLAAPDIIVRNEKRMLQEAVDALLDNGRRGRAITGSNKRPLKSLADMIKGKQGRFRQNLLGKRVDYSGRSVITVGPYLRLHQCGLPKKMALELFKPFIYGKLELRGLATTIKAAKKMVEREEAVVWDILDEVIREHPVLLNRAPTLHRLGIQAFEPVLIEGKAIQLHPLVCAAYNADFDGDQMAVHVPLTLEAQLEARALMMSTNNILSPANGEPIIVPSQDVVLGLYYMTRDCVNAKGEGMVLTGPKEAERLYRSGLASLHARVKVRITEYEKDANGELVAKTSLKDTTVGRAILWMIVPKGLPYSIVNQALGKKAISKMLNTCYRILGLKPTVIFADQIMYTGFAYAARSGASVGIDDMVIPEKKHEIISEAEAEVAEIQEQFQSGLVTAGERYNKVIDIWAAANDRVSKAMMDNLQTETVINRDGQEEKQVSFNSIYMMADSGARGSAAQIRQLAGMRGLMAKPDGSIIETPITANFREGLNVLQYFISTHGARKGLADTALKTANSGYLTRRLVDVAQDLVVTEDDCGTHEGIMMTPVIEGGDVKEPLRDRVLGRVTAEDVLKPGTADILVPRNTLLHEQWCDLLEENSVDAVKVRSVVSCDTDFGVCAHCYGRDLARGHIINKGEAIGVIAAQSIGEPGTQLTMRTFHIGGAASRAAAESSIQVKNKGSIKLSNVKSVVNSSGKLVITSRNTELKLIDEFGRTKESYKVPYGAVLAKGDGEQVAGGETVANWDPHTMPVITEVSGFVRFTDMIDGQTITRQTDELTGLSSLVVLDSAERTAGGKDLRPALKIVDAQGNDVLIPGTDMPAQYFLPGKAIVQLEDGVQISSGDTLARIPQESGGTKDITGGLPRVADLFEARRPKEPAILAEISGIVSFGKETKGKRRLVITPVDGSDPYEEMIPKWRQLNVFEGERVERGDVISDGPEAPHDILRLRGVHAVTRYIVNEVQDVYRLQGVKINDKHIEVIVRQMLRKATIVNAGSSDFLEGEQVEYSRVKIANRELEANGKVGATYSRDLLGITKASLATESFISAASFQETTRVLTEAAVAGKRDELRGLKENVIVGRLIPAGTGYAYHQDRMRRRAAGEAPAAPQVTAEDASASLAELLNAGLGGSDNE
Sequence of UniProt P0A8V2 (whole entry, looked up): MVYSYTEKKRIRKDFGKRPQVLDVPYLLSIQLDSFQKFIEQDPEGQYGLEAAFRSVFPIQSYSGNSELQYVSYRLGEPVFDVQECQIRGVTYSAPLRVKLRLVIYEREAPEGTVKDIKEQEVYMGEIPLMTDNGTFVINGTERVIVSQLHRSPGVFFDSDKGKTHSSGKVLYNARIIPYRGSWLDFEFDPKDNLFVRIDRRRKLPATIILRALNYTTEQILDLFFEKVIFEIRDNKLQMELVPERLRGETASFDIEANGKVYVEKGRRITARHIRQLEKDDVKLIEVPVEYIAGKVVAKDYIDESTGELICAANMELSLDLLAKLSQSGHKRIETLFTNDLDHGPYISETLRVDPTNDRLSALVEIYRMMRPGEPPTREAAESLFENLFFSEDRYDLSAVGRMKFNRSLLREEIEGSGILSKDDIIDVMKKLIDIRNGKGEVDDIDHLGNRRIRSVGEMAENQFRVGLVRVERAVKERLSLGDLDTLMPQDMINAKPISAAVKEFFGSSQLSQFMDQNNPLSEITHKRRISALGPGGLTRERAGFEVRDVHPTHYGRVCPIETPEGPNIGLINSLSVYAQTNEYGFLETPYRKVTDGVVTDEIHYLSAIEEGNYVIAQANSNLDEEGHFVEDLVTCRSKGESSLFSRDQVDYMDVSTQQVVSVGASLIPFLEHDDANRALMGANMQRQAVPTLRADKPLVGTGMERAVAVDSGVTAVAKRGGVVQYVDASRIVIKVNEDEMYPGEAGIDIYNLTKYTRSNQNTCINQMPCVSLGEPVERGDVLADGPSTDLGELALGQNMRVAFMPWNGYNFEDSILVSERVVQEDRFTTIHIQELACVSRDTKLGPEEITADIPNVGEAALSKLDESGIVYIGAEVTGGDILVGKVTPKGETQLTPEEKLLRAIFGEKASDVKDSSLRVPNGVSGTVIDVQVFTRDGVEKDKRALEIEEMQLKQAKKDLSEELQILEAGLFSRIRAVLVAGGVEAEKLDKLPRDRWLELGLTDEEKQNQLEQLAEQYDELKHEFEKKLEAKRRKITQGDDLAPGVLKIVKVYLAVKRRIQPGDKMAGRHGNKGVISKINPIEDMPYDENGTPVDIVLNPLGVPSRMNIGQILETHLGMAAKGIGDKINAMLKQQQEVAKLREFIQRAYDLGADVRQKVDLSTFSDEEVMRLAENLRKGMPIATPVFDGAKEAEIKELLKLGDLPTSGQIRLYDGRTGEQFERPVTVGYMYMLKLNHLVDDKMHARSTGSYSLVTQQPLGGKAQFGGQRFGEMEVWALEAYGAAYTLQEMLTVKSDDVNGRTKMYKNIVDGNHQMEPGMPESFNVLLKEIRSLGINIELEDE

Structure (SMILES)	target or system	test	test system	setting	how to read	endpoint	result
CC[C@H](C)[C@H](NC(=O)[C@H](CC(C)C)NC(=O)[C@H](Cc1c[nH]c2ccccc12)NC(=O)[C@H](CCC(N)=O)NC(=O)[C@@H](NC(=O)[C@H](Cc1ccccc1)NC(=O)[C@H](C)NC(=O)[C@H](CCCCNC(=O)COCCOCCNC(=O)COCCOCCNC(=O)CC[C@H](NC(=O)CCCCCCCCCCCCCCCCCCC(=O)O)C(=O)O)NC(=O)[C@H](CCC(N)=O)NC(=O)[C@H](C)NC(=O)[C@@H](NC(=O)[C@H](CCCCN)NC(=O)[C@H](CC(=O)O)NC(=O)[C@H](CC(C)C)NC(=O)C(C)(C)NC(=O)[C@@H](NC(=O)[C@H](CO)NC(=O)[C@H](Cc1ccc(O)cc1)NC(=O)[C@H](CC(=O)O)NC(=O)[C@H](CO)NC(=O)[C@@H](NC(=O)[C@H](Cc1ccccc1)NC(=O)[C@@H](NC(=O)CNC(=O)[C@H](CCC(=O)O)NC(=O)C(C)(C)NC(=O)[C@@H](N)Cc1ccc(O)cc1)[C@@H](C)O)[C@@H](C)O)[C@@H](C)CC)[C@@H](C)CC)C(C)C)C(=O)N[C@@H](C)C(=O)NCC(=O)NCC(=O)N1CCC[C@H]1C(=O)N[C@@H](CO)C(=O)N[C@@H](CO)C(=O)NCC(=O)N[C@@H](C)C(=O)N1CCC[C@H]1C(=O)N1CCC[C@H]1C(=O)N1CCC[C@H]1C(=O)N[C@@H](CO)C(N)=O	–	–	human, severe renal impairment, plasma	subcutaneous, 5 mg single dose, median	–	Tmax	18 h
O=C(/C=C/c1ccc(O)c2oc(-c3ccc(O)c(O)c3)cc12)O[C@H](Cc1ccc(O)c(O)c1)C(=O)O	Spike glycoprotein	binding, biolayer interferometry	–	–	–	koff	0.00388 s⁻¹
CC(=O)OCCN1C(=O)c2c(C)nc3ccc(S(=O)(=O)N4CCOCC4)cc3c2C1=O	rep main protease	reporter gene (Gaussia luciferase), inhibitor	–	20 µM	–	inhibition	1.57%
CC(C)(O)C(F)(F)C(=O)N[C@@H](CNc1ccc2nnnn2n1)c1ccc2ccccc2c1	rep main protease	enzyme activity, inhibitor	–	5 µM, run 1	–	inhibition	10.5%
CO[C@H]1/C=C/O[C@@]2(C)Oc3c(C)c(O)c4c(O)c(c(/C=N/N5CCN(C)CC5)c(O)c4c3C2=O)NC(=O)/C(C)=C\C=C\[C@H](C)[C@H](O)[C@@H](C)[C@@H](O)[C@@H](C)[C@H](OC(C)=O)[C@@H]1C	Spike glycoprotein	binding, BLI	–	–	–	kon	3520 M⁻¹ s⁻¹
CC(C)(Oc1ccc(C(=O)c2ccc(Cl)cc2)cc1)C(=O)O	rep main protease	reporter gene (mKate2), inhibitor	–	20 µM	–	inhibition	-0.55%
CC(=O)O[C@@H]1[C@H](N)[C@@H](OP(=O)(O)O)[C@@]2(C(=O)O)CS[C@@](O)(C(N)=O)[C@@H]1O2	DNA-directed RNA polymerase subunit beta' / DNA-directed RNA polymerase subunit beta (rpoC/rpoB, Escherichia coli, UniProt P0A8T7+P0A8V2)	binding to elongation complex, 6-MI fluorescence titration	wild-type RNAP	riboside RNA 3′-end Adenine	–	Kd	0.13 ± 0.04 µM
O=C(/C=C/c1ccc(O)c(O)c1/C=C/c1ccc(O)c(O)c1)O[C@H](Cc1ccc(O)c(O)c1)C(=O)O	Spike glycoprotein	binding, BLI	–	–	–	koff	0.0028 s⁻¹
Nc1ccc(C(=O)N2CC3(CCC3)C[C@H]2CNC(=O)c2cncc3ccccc23)cc1O	rep main protease	enzyme activity, inhibitor	–	5 µM, run 1	–	inhibition	29.5%
[N-]=[N+]=N[C@@H]1O[C@H](CO)[C@H](O[C@H]2O[C@H](CO)[C@H](O)[C@H](O)[C@H]2O)[C@H](O)[C@H]1O	Shiga toxin subunit B (stxB, Shigella dysenteriae, UniProt Q7BQ98)	–	Escherichia coli	–	–	log IC50	-2.3
CC[C@H](C)[C@H](NC(=O)[C@H](CC(C)C)NC(=O)[C@H](Cc1c[nH]c2ccccc12)NC(=O)[C@H](CCC(N)=O)NC(=O)[C@@H](NC(=O)[C@H](Cc1ccccc1)NC(=O)[C@H](C)NC(=O)[C@H](CCCCNC(=O)COCCOCCNC(=O)COCCOCCNC(=O)CC[C@H](NC(=O)CCCCCCCCCCCCCCCCCCC(=O)O)C(=O)O)NC(=O)[C@H](CCC(N)=O)NC(=O)[C@H](C)NC(=O)[C@@H](NC(=O)[C@H](CCCCN)NC(=O)[C@H](CC(=O)O)NC(=O)[C@H](CC(C)C)NC(=O)C(C)(C)NC(=O)[C@@H](NC(=O)[C@H](CO)NC(=O)[C@H](Cc1ccc(O)cc1)NC(=O)[C@H](CC(=O)O)NC(=O)[C@H](CO)NC(=O)[C@@H](NC(=O)[C@H](Cc1ccccc1)NC(=O)[C@@H](NC(=O)CNC(=O)[C@H](CCC(=O)O)NC(=O)C(C)(C)NC(=O)[C@@H](N)Cc1ccc(O)cc1)[C@@H](C)O)[C@@H](C)O)[C@@H](C)CC)[C@@H](C)CC)C(C)C)C(=O)N[C@@H](C)C(=O)NCC(=O)NCC(=O)N1CCC[C@H]1C(=O)N[C@@H](CO)C(=O)N[C@@H](CO)C(=O)NCC(=O)N[C@@H](C)C(=O)N1CCC[C@H]1C(=O)N1CCC[C@H]1C(=O)N1CCC[C@H]1C(=O)N[C@@H](CO)C(N)=O	–	–	healthy subjects, single ascending dose	1.0 mg, titre increase ≥4-fold	–	treatment-boosted ADA positive subjects	0%
COP(=O)(OC)OC=C(Cl)Cl	rat CYP2D	bufuralol 1'-hydroxylation, non-competitive inhibitor	rat Sprague-Dawley, liver microsomes	10 min, pH 7.4, with: bufuralol 4 to 134 µM	–	Ki	> 5000 µM
CC(C)c1ccc(NC(=O)c2cccs2)c(-c2nc3ccccc3[nH]c2=O)c1	rep main protease	viral replication, Gluc reporter	SARS-CoV-2	20 µM	–	inhibition	-0.236%
Cc1cnc(F)c(C(=O)NC[C@@H]2c3ccccc3CCN2C(=O)c2cccc3[nH]ccc23)c1	rep main protease	enzyme activity, inhibitor	–	5 µM, mean of runs	–	inhibition	10%
Cn1cnc(Cn2c(=O)[nH]/c(=N\c3cc4cn(C)nc4cc3Cl)n(Cc3cc(F)c(F)cc3F)c2=O)n1	–	–	human, severe renal impairment	oral, 375 mg	–	treatment-related TEAE, Mild severity	0%
Nc1ncnc2c1ncn2[C@H]1C[C@H](O)[C@@H](COP(=O)(O)OP(=O)(O)OP(=O)(O)O)O1	Gag-Pol polyprotein, reverse transcriptase (gag-pol, Human immunodeficiency virus type 1 group M subtype B, UniProt P04585, K653R)	substrate	–	K66R mutant, with: G:A mismatched primer template	–	Km	124 ± 101 µM
Nc1ncnc2c([C@@H]3N[C@H](CO)[C@@H](O)[C@H]3O)c[nH]c12	Zaire ebolavirus	viral replication, inhibitor	human Macrophage	0.4 µM	–	inhibition	16.8%
Nc1ccc2cc3ccc(N)cc3nc2c1	rep main protease	reporter gene (mKate2), inhibitor	HEK293T	20 µM	–	inhibition	-0.49%
CC[C@H](C)[C@H](NC(=O)[C@@H]1CCCN1C(=O)[C@H](C)NC(=O)[C@@H]1CSSC[C@@H]2NC(=O)[C@H](CC(=O)O)NC(=O)[C@H](CCCNC(=N)N)NC(=O)[C@H](CCC(=O)O)NC(=O)[C@H](CCCNC(=N)N)NC(=O)CNC(=O)[C@H](CC(=O)O)NC(=O)[C@@H]3CSSC[C@H](NC(=O)[C@H](CCC(=O)O)NC(=O)[C@H](CC(C)C)NC(=O)CNC(=O)[C@H](C)NC(=O)[C@H](CSSC[C@H](NC(=O)[C@H](Cc4ccccc4)NC(=O)[C@@H](N)CO)C(=O)N[C@@H](CC(C)C)C(=O)N[C@@H](C(C)C)C(=O)N[C@@H](CCCCN)C(=O)N[C@@H](Cc4c[nH]c5ccccc45)C(=O)N[C@@H](CCCCN)C(=O)N[C@@H](CCC(N)=O)C(=O)N3)NC2=O)C(=O)N[C@@H](Cc2c[nH]c3ccccc23)C(=O)N[C@@H](CCCCN)C(=O)N[C@@H](CCCNC(=N)N)C(=O)N[C@@H](CO)C(=O)NCC(=O)N[C@@H](CC(N)=O)C(=O)N[C@@H](CCCCN)C(=O)N[C@@H](CO)C(=O)N[C@@H](CO)C(=O)N[C@@H](C(C)C)C(=O)N1)C(=O)N[C@H](C(=O)O)[C@@H](C)O	ASIC1 (Homo sapiens, UniProt P78348, F352A)	outside-out patch clamp	HEK-293T ASIC1a knockout	1 µM, F352A mutant	baseline: before toxin	deactivation fold change	1 ± 0.1 fold
O=C(N[C@@H]1CC[C@H]2C[C@@H]1CN2C(=O)c1cccc(-n2cncn2)c1)c1cc2c(=O)[nH]ccn2n1	rep main protease	enzyme activity, inhibitor	–	5 µM, mean of runs	–	inhibition	10.8%
CCc1c(C(=O)C(N)=O)c2c(OCC(=O)O)cccc2n1Cc1ccccc1	Daboia russelii venom phospholipase A2	enzyme activity, inhibitor	PB population	10 µM, with: NOB substrate	baseline: venom alone	remaining activity	21.5% and 20.5% and 13.7%
